Measured values of several laboratories.
Protocols differ between the studies behind these lines. ± gives the spread as reported.

`CCOc1ccc2ccc(=O)oc2c1` has a remaining compound of 95% (mouse liver microsomes; 1 µM, 60 min, pH 7.4, added: without cofactors).
`CNc1cc[n+](CCNC(=O)c2ccn3c(-c4c(C)noc4C)cnc3c2)cc1.[Cl-]` gave a remaining compound of 100 % peak area (0.1 M HCl; initial, pH 1).
`N#Cc1ccc(-c2cc(NCCCN3CCCCC3)c3ccccc3n2)cc1` has a remaining compound of 40.8% (human liver microsomes; 1 h).
The remaining compound of `O=C(O)c1ccc(CN2CCC(CN[C@@H]3C[C@H]3c3ccccc3)CC2)cc1` is reported as 99% (aqueous buffer; 0 days, 37 °C).
`CSc1ncc(Br)c(C(=O)N[C@@H](CCC(=O)O)C(=O)N[C@@H](Cc2ccc3ccccc3c2)C(=O)N[C@@H](CC(C)C)C(=O)N[C@@H]2C[C@H]2c2ccccc2)n1` has a remaining compound of 89.2% (pooled human plasma; 15 min, 37 °C).
`COc1ccc2[nH]c([S+]([O-])Cc3ncc(C)c(OC)c3C)nc2c1` (stereo not drawn) gave a remaining compound of 0% (simulated gastric fluid with pepsin; 1 µM, 60 min, pH 1.2).
For `CC[C@H](C)C(=O)O[C@H]1C[C@@H](C)C=C2C=C[C@H](C)[C@H](CC[C@@H]3C[C@@H](O)CC(=O)O3)[C@H]21`, the remaining compound was 100% (Beagle dog whole blood; 5 µM, 0 min).
`C=CC(=O)N1CCC(C(=O)NCC(=O)N2CCN(c3nc(-c4cnc(N)nc4C(F)F)nc(N4CCOCC4)n3)CC2)CC1` has a remaining compound of 93.2% (microsomes, rat liver, male, Sprague-Dawley; 1 µM, 30 min, 0.5 mg/mL microsomal protein, added: NADPH).
The remaining compound of `O=C(Nc1ccc(F)cc1)N1CCNCC1COc1ccc2c(c1)OCO2` (stereo not drawn) is reported as 57 ± 1% (mouse liver microsomes; 90 min).
For `C#Cc1ccc(C(F)(F)F)cc1C=O`, the remaining compound was 42% (HEPES buffer; 1 mM, 20 h, pH 7.4, 10% acetonitrile).
With `Cn1cncc1-c1c(F)cncc1NC(=O)c1c(N)nn2cc(F)cnc12` the remaining compound was 98.1% (DMSO stock solution; 100 µg/mL, 6 h, room temperature, benchtop).
The remaining compound of `CC[N+]1(C)CCN(c2ccc(NC(=O)c3cccc(C)n3)cc2)CC1` is reported as 96.8% (pooled BALB/c mouse plasma; 1 µM, 0.1667 h).
`Cc1cc(Oc2ncccc2CN2CCN(c3cccc(C)c3C)CC2)ccc1-c1c(C)c(=O)[nH]c(=O)n1C` has a remaining compound of 92% (rat plasma; 1 µM, 2 h).
For `OCc1nc2ccc(NCc3ccc(SC(F)(F)F)cc3)cc2[nH]1`, the remaining compound was greater than 80% (human liver S9; 1 µM, 90 min, pH 7.4).
`N#Cc1ccc(Nc2nc(N)cc(Oc3c(F)cc(-c4ccc(C#N)cc4)cc3F)n2)cc1` gave a remaining compound of 93.8% (human plasma; 1 µM, 0.50 h, pH 7.4, 37 °C).
The remaining compound of `CC(C)=CCC[C@](C)(O[C@@H]1O[C@H](CO[C@@H]2O[C@H](CO)[C@@H](O)[C@H](O)[C@H]2O)[C@@H](O)[C@H](O)[C@H]1O)[C@H]1CC[C@]2(C)[C@@H]1[C@H](O)C[C@@H]1[C@@]3(C)CC[C@H](O[C@@H]4O[C@H](CO)[C@@H](O)[C@H](O)[C@H]4O[C@@H]4O[C@H](CO)[C@@H](O)[C@H](O)[C@H]4O)C(C)(C)[C@@H]3CC[C@]12C` is reported as 98 ± 3.9% (rat plasma; 1 ng/mL, 24 h, room temperature).
`CC(C)(C)OC(=O)NC(c1cccc(F)c1)C(F)(F)C(=O)c1ccc(Cl)cc1` (stereo not drawn) has a remaining compound of 75.5% (rat serum; 30 min; relative to: time zero).
For `COc1ccc2c(Cc3ccccc3F)c3n(c(=O)c2c1OC)CCc1cc2c(cc1-3)OCO2`, the remaining compound was 68.2 ± 6.1% (human liver microsomes; 10 µM, 30 min, pH 7.4, added: microsomes 0.5 mg/mL).
`NC(=O)c1ccccc1NC(=O)c1ccc(-c2ccccc2)cc1` gave a remaining compound of 105% (human plasma; 2 µM, 60 min, 37 °C).
For `Cc1cc2ccccc2n1CCNC(=O)c1ccc(N2CCC(C(=O)O)CC2)cc1`, the remaining compound was greater than 50% (mouse liver microsomes; 60 min).
The remaining compound of `CCOC(=O)[C@H](CCc1ccccc1)N[C@@H](C)C(=O)N1CCC[C@H]1C(=O)O` is reported as 59% (mouse plasma; 10 µM, 30 min).
